Experimental data pooled from the literature.
Every numbered part comes from another study and shows a few of its results, in no order.

Sample 1
Target: Replicase polyprotein 1ab, polymerase (rep, Severe acute respiratory syndrome coronavirus 2, UniProt P0DTD1)
Observed: enzyme activity
Mode: inhibitor
Concentration: 20 µM
Structure (SMILES) | inhibition [%]
CCS(=O)(=O)Nc1ccc2c(c1)/C(=C(/Nc1ccc(CN3CCCCC3)cc1)c1ccccc1)C(=O)N2 | 6.77
CCCC(=O)O | -0.83
C[C@@H](NC(=O)c1ncnc(N)c1Cl)c1ncc(C(=O)Nc2cc(C(F)(F)F)c(Cl)cn2)s1 | 3.47
CN(C)c1cc(CNCC(C)(C)C)c(O)c2c1C[C@H]1C[C@H]3[C@H](N(C)C)C(O)=C(C(N)=O)C(=O)[C@@]3(O)C(O)=C1C2=O | 12.7
CCN1CCN(C(=O)Cc2ccc(Nc3ncc(F)c(Nc4ccc(C(=O)Nc5ccccc5Cl)cc4)n3)cc2)CC1 | -5.32
O=C(Oc1ccc(Br)cc1)N1CCN2CCC1CC2 | 2.16
N#Cc1ccncn1 | 1.78
Oc1cc2c(cc1O)C(c1ccccc1)CNCC2 (centres unmarked) | -23.5
CC(C)(N)Cc1ccccc1 | 3
O=C(O)c1ccc(-c2c[nH]c3ncc(-c4ccccc4)cc23)cc1C1CCCC1 | -9.46
CC(C)C(=O)SCCCCC[C@H](NC(=O)OC(C)(C)C)C(=O)NC12CC3CC(CC(C3)C1)C2 | -5.52
Cn1c(=O)c2c(ncn2CC(=O)O)n(C)c1=O | -7.23
O=C1CCC2CCC(=O)N12 | -2.36
CC(C)(C)Sc1c(CC(C)(C)C(=O)O)n(Cc2ccc(Cl)cc2)c2ccc(OCc3ccc4ccccc4n3)cc12 | 1
CNC(=O)c1cc(Oc2ccc(NC(=O)Nc3cc(C(C)(C)C)nn3-c3ccc4ncccc4c3)c(F)c2)ccn1 | -0.42
Nc1ccn([C@H]2CC[C@@H](CO)O2)c(=O)n1 | -7.76
C=CC1=C(C)c2cc3[nH]c(cc4nc(cc5[nH]c(cc1n2)c(C)c5CCC(=O)O)C(CCC(=O)O)=C4C)c(C)c3C=C | 112
Cc1cc(C)nc(SCC(=O)Nc2ncc(Cc3cccc4ccccc34)s2)n1 | -5.84
CC1(C)CC(=O)c2c(C(F)(F)F)nn(-c3ccc(C(N)=O)c(N[C@H]4CC[C@H](OC(=O)CN)CC4)c3)c2C1 | 8.75
COc1ccc(C(=O)CCC(=O)O)c2ccccc12 | 3.78
O=c1sn(-c2cccc3ccccc23)c(=O)n1Cc1ccccc1 | 4.62
C[C@]1(Cn2ccnn2)[C@H](C(=O)O)N2C(=O)C[C@H]2S1(=O)=O | -5.25
CCCCc1ccc(O)cc1O | -0.04
C[C@@H](O)[C@@H]1NC(=O)[C@H](CCCCN)NC(=O)[C@@H](Cc2c[nH]c3ccccc23)NC(=O)[C@H](Cc2ccccc2)NC(=O)[C@@H](NC(=O)[C@H](N)Cc2ccccc2)CSSC[C@@H](C(=O)N[C@H](CO)[C@@H](C)O)NC1=O | -8.3
CCOC(=O)c1ncn2c1CN(C)C(=O)c1cc(F)ccc1-2 | -3.03

Sample 2
Target: Sal-like protein 4, full length isoform B (SALL4, Homo sapiens, UniProt Q9UJQ4-2, residues 1-616)
Method: universal PBM
Form: double-stranded DNA, one strand shown
Sample: in vitro
Concentration: not given
Setting: 8-mer, flanks averaged, mean of replicates
Reading: higher = stronger binding
Sequence | E-score
AGTCATGG | 0.00515
AGAAGCTG | -0.0875
ACCGACCC | -0.165
GACACCAA | 0.157
TAGCTACA | 0.171
GCCCCAAC | -0.141
ATTTATAG | 0.355
CCAGAGTA | -0.16

Sample 3
Target: RNA binding protein fox-1 homolog 2, RRM domain, GST-SBP tag (RBFOX2, Homo sapiens, UniProt O43251-10, residues 100-194)
Method: RNA Bind-n-Seq
Form: RNA
Sample: in vitro
Concentration: 365 nM
Setting: natural RNA segment, single round, ends assumed
Baseline: no-protein control
Reading: higher = stronger binding
Target sequence (chain): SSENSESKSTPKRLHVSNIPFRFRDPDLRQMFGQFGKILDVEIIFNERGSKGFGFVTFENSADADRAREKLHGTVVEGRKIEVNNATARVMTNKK
Sequence | RBNS enrichment (R)
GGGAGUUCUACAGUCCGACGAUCCUGACCUUGGUAGGACUAAAGUAUUGGGCAGAGCAGCAGCAGUCCCAGGUUUUGUUUGACCUGUGUAGGCUGCAUUUAAAUCUUUAAAACUGCUUUGGUGUCGUUUUUUUUGGAAUUCUCGGGUGCCAA | 0.376
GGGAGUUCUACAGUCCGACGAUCAGGCUCCUUUCCCUAAGGAACCAUAGAAGAGAGGAAGAAAACAAAGGGCAUGUGUGAGGGAAGCUGCUUGGGUGGGUGUUAGGGCUAUGAAAUCUUGGAUUUGGGGCUGAUGGAAUUCUCGGGUGCCAA | 2.46
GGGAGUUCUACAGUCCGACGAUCUUCCGAAGAUGAGGCCCAGGAUAUGGAGUUGUAGUAGAAAAAGCACCUGCUUUUCAGAAAGACUAUUAUUUCCUAACCAUGAGAAGCAGACUAUAAUAUUCAUAUUUAAAUGGAAUUCUCGGGUGCCAA | 0.171
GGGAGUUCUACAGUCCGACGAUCUCCACUUAGGCCACACAGUGAUGAGGAAACCACAGAUGGAGCUUCUUGCCGAUAAUACUGACUCUAGCCCAUGAUUGCCUUGCCCAAGCCAAAGAGGAAGGUUAGGUUGGUGGAAUUCUCGGGUGCCAA | 0.498
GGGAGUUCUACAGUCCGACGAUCACUUACACUGUAUAUUUUGCAAUAGUUACCUCAAGGCCUACUGACCAAAUUGUUGUGUUGAGAUGAUAUUUAACUUUUUGCCAAAUAAAAUAUAUUGAUUCUUUUCUAUUUGGAAUUCUCGGGUGCCAA | 0.463
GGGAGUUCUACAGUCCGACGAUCAUAAACCUUCAUAUUCUGUCUGUCUCUGUUUGGUUUUGUUUUUAAUAUAGUGUGCCAAUUUUGUGACUGUAAUCAUGUGAAAGCCCCAUUGAACCGAAGAAUUAUGUCUGUGGAAUUCUCGGGUGCCAA | 6.71
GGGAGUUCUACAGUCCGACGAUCGCUCUCCUCCUUCUGUCCCCUCCCCUACUGUCUGCUGCCCCUUCCUGGGGAGUUGGUGCUUUCUUUUUUGUUGUUGUUUUUUCCCAGGGGUAGGGAGGAGAGAGGAGGGGUGGAAUUCUCGGGUGCCAA | 2.41
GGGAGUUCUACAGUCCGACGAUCAGAAACUGAGUUAGGGCUUGAGUCAGCAUCCCAGUGCUUUUGUCUAGCUUGGUUCUGGGGUUGAGAAAGUGAAGUUUGGCUGCAAUAGCUCCUCAAGUUGGGUUUCAUUUUGGAAUUCUCGGGUGCCAA | 1

Sample 4
Target: Histone acetyltransferase KAT6A, both winged helices, GST fusion (KAT6A, Homo sapiens, UniProt Q92794, residues 1-181)
Method: protein binding microarray
Form: double-stranded DNA, one strand shown
Sample: in vitro
Concentration: not given
Setting: 8-mer, flanks averaged, mean of 2 arrays, mostly near background
Baseline: not given
Reading: higher = stronger binding
Construct (chain): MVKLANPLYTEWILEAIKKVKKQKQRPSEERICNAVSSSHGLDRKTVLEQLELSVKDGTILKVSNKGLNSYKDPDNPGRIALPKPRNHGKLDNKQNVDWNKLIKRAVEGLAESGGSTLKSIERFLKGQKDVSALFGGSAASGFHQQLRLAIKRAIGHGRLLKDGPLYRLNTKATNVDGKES
Sequence | E-score
AACGACCA | -0.196
ACCGCTGC | 0.114
GTACGAAC | 0.142
ACGCATTA | 0.0386
GGGTACGA | -0.0937
GTCAAATA | -0.00974
AGTTGACC | 0.046
GCGCGCAC | 0.391

Mixed results
SMILES | target | observed | mode | concentration | setting | endpoint | result
Cc1ccc(S(=O)(=O)/C=C/C#N)cc1 | Replicase polyprotein 1ab, main protease (rep, Severe acute respiratory syndrome coronavirus 2, UniProt P0DTD1) | enzyme activity | inhibitor | 20 µM | primary screen | inhibition | 95.7%

For quick reference, copied from above (sample 2):
Sequence | E-score
ACCGACCC | -0.165
GACACCAA | 0.157
TAGCTACA | 0.171
GCCCCAAC | -0.141
